Experimental data pooled from the literature.
Each numbered part is a random draw from the data of one study; scales do not carry over between parts. Changes are numbered by the printed parent chain.

Series 1 — technique: DHFR PCA, deep sequencing; matrix: yeast; added: (+)-ABA 4.8 µM; reference: wild-type fitted maximum; reading: higher = stronger binding
Target: ABI1, truncated, D143A, DHFR fusion (Arabidopsis thaliana)
Notes: methotrexate growth selection, single substitutions
Parent: PYL1, truncated, DHFR fusion (Arabidopsis thaliana); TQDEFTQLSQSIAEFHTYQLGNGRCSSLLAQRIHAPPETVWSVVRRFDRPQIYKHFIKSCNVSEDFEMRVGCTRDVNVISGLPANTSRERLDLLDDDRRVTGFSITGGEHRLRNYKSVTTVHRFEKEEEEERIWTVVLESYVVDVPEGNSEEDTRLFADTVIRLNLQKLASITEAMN; partner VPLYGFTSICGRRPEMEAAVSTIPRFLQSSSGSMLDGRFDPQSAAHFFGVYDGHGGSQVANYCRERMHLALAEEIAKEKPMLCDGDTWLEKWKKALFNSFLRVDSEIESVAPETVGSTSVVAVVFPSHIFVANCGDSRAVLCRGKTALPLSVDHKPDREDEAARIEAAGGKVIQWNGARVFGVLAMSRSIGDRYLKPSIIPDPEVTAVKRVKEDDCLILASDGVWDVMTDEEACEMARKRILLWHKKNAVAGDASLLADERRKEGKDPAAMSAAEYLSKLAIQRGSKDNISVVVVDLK
Substitution	relative binding score [%]
Y53T	4.41
E64V	60.7
L29G	-2.86
T135Y	0.915
R123M	53.6
M176V	54.3
T101F	86.3
L164C	77.8
V143R	-3.26
F5D	47.4
T106I	106
V62D	-9.19
R74H	2.54
E4C	65.4
L138V	24
N165I	-8.3
E14H	37

Series 2 — technique: RNA Bind-n-Seq; form: RNA; matrix: in vitro; concentration: 365 nM; reference: no-protein control; reading: higher = stronger binding
Target: RNA binding protein fox-1 homolog 2, RRM domain, GST-SBP tag (RBFOX2, Homo sapiens, UniProt O43251-10, residues 100-194)
Notes: natural RNA segment, single round, ends assumed
Construct (chain): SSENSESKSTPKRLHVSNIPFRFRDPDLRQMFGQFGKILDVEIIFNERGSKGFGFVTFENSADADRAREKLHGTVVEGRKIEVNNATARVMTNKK
Strand	RBNS enrichment (R)
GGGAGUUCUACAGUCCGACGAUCUAUAUAUAAAAAGGCAGCCAUUGCUAUUGCAAUUCAUUUAAUAAAGCUUUAGUUUAAACAAAAGUAUUGUAUACAGGAACUAUGUAUAGUGCAGGGGUUCUUUUCAGUUAUGGAAUUCUCGGGUGCCAA	0.456
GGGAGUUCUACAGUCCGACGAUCUAAGCUCCCCUUGGAGUUGGAGAGGUAUCGGGGACACUGCUGGUUAGUACGUUUUGAUUUUAAACAGGACCUUUGUGUGGUCAGAUCCCACAGCACUGCCUGUCCUUUUUUGGAAUUCUCGGGUGCCAA	0.414
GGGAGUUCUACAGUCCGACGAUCCAUGAAAUGAUAGAUUUGACCUCCUCCCUGUUAUUUUCAAGUAGCUGGGAUUUUAAACUAGAUGACCUCAUUAACCGAUGCUUUACCAAACAGCAAACCAAGAGAUUGCUUGGAAUUCUCGGGUGCCAA	0.602
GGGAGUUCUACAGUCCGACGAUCUGUAGCCUGAGUGUCCACAGGGACACACGUGAGCCACAGGGCUAGAAGCACAGGCCCGUCACCCCAGGAGGAAAAGCCCAGGGUCUGGGGCAGCAGAGCCAUCGCAUCAUUGGAAUUCUCGGGUGCCAA	1.2
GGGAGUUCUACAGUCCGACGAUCGUCUAUAAAAAUGGAGUCACUGGGAUAUCAAUGAAGAAAUCAAACUGUUUAAUUUUAAUUCAGUUGUUAAUGUGUCUUAGUGUGUGCAUUAUUUUCUUACUAUUAACCCAUGGAAUUCUCGGGUGCCAA	0.622
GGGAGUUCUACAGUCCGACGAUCCUGCUUCACCCUCACCACCACCACUUCCAAGGAUCAAAGCUGUCUACAGCUCCAUCAAAACCUUUCAUUCACUGCCAAUGAGGAGCACUUUCUUUCUGUAGCAUAGCUUCUGGAAUUCUCGGGUGCCAA	0.657
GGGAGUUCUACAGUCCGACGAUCUGAGCGAUCUUCUAUGCAGUUCUGCCAUGCGUCCUGUUGGUCUCUCUGUGUUCUUUGUUACUUGGGUGCAAUAGCAACUUCCCUACCCCGUGCAUUCCAUCUUUCAUGUUUGGAAUUCUCGGGUGCCAA	0.325
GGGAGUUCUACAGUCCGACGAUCACUGUCCCCCGUCUGUCCAGCAAUAGUCUGUCCAGAGACAAGCUUCUGUAGCGGCAGGGCUUCCGCAAAACUAACCUGCUUUGUCCAGGUCACCCCAGACACCGCCCCUCUGGAAUUCUCGGGUGCCAA	0.443
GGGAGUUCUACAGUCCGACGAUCCUUCCCCAGCCUGCCCUCUGCCGCCCCGAACAGUCAGGUCUUUGGUCAUCGUUUUAACUGGGAACACUUGGUCACUACAAGGACAUGUCCUGGUUCCCUGGGACAGCAGGUGGAAUUCUCGGGUGCCAA	0.567
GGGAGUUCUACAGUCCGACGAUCUUCUAGUUCUUGGUUUCUCAUAGAUUUUUAAACUAUCUAAUUAGAGAACACUUUUGAUCCAUCACAGCAGGUCACCAGCCAUGACAAGGCUCAAUCUAGGACUCUCAGCUUGGAAUUCUCGGGUGCCAA	0.329
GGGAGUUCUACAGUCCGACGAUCUGUAGCCUUUGAAGGAUGCCCUGUGUAAUUAUUCAGUGCCACAAAUUGAAAGCUUCCAUGUUUAAUGUUAUCCUCUUGCUAUAUAAAUAAAGCAAAUAUAUUUAGGCCAGUGGAAUUCUCGGGUGCCAA	0.452
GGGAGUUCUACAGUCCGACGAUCCCUUUUCCGUAGGUCCUGAGUUCAAAUCCCAGUAACCACAUGGUGGCUGACAACCACCCGUAAUGAGAUCUGAUGCCCUCUUCUGUUGCUGUCUGAAGACAGCUACAGUAUGGAAUUCUCGGGUGCCAA	0.226

Series 3 — technique: RNA Bind-n-Seq; form: RNA; matrix: in vitro; concentration: 200 nM; notes: whole 134-nt RNA, ends assumed; added: 150 mM KCl; reference: input library; reading: higher = stronger binding
Target: Ras GTPase-activating protein-binding protein 1, full length (G3BP1, Homo sapiens, UniProt Q13283)
Chain of UniProt Q13283 (whole entry, looked up): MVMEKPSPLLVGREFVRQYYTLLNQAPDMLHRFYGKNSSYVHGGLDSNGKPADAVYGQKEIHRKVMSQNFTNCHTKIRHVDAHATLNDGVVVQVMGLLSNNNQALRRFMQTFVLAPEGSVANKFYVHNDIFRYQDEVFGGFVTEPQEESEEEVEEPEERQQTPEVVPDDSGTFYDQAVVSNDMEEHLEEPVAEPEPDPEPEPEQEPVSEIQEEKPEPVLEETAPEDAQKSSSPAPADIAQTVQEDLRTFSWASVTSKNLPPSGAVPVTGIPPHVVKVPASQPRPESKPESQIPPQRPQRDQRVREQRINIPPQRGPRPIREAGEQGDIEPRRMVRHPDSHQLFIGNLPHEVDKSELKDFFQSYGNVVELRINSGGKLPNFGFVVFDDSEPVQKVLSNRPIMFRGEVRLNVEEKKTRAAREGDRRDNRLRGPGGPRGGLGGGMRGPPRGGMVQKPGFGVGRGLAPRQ
Strand	log2 enrichment
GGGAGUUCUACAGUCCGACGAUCCUGUGCUACACAUCGUAUGUACCGAAUCGGAAAAAAAGGGAAAAAAAGGGGAAAAAAAGGGGAAAGUAUUAUGUUACGCCGUUCGGAUCUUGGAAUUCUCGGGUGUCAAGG	-0.69
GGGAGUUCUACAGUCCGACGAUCCUGUGCUACACAUCGUAUGUACCGAAUCGGGUUUUUUUGGGUUUUUUUGGUUUUUUUGGGGAAAGUAUUAUGUUACGCCGUUCGGAUCUGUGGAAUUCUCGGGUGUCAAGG	-1.12
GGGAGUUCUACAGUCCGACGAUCUGUGCUACACAUCGUAUGUACCGAAUCGGGGUUUUUUUGGGGUUUUUUUGGGGUUUUUUUGGAAAGUAUUAUGUUACGCCGUUCGGAUCUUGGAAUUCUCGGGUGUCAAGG	-0.429
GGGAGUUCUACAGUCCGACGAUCUUGCUGUCACCCGCUGCCUGUCUGCAGGAUCCCGGAUUCCGUAUCAGGGGACCGAAAUUAGUCGGAAAAUAGGAAGCAGGUGCUCGCUUGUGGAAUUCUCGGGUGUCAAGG	-1.59
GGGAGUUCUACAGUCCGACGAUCACCAUGCAGGUGGGCAUCUUUGGGAAGUGGGGCAAGGGGGGGAUAGGGAGGGGGGUAACACUUUGGGAACAGGUGGUCCCAGAAAGUUUCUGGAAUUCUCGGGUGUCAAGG	0.926
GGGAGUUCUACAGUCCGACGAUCAGUCCUGUGCUACACAUCGUAUGUACCGAAUCGGUUUUUGGUUUUUGGGUUUUUGGGGAAAGUAUUAUGUUACGCCGUUCGGAUCUGCACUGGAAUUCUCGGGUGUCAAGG	-0.977
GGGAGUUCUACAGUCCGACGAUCUCCUGUGCUACACAUCGUAUGUACCGAAUCGGGCCCCCGGGCCCCCGGGGCCCCCGGGGAAAGUAUUAUGUUACGCCGUUCGGAUCUGCAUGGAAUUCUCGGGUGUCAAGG	-1.02
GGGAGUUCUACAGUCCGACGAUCUGGCCCUGGUGGCAUGCGGGGAGGAAGAGGUGGCCUCAUGGAUCGUGGUGGCCCCGGUGGAAUGUUCAGAGGUGGCCGUGGUGGAGACAGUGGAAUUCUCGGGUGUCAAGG	0.158
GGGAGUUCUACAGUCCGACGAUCCCUGUGCUACACAUCGUAUGUACCGAAUCGGGGCCCCCGGGGCCCCCGGGGCCCCCGGGGAAAGUAUUAUGUUACGCCGUUCGGAUCUGCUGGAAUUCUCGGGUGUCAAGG	0.081
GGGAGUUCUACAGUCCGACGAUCAGUCCUGUGCUACACAUCGUAUGUACCGAAUCGGGUUUUUGGGUGGGAAAAAAAGGGAAAGUAUUAUGUUACGCCGUUCGGAUCUGCACUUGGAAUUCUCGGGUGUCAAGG	-0.359

Series 4 — technique: universal PBM; form: double-stranded DNA, one strand shown; matrix: in vitro; concentration: not given; reading: higher = stronger binding
Target: Sal-like protein 4, full length isoform B (SALL4, Homo sapiens, UniProt Q9UJQ4-2, residues 1-616)
Notes: 8-mer, flanks averaged, mean of replicates
Strand	E-score
CGCTAACC	-0.187
GCACGTGA	-0.0395
ACCCACAT	0.0802
TCCATCCA	0.0817
GTGGCTGA	-0.152
GAGGCGGC	-0.265
AGACTAGA	-0.0263
GCCATAAC	0.135
TAGTCAGA	-0.0155
CGTACACA	0.0648
ATAACCGG	0.158
CAGGATCG	-0.209
CATCGTTA	0.102
CCCATATC	0.155
ACCCCATA	-0.129
AGCTTAAC	-0.0673
ATGCTGTC	0.0145
AGCTGTAG	-0.012
ACCGCTTA	-0.12
AGGCATGG	-0.168
TTCAGCAA	0.124
GAGATAAC	0.0281
CGTTGGAA	-0.0607
CGAGACAG	-0.191
ATAACGTG	0.247

Series 5 — technique: protein binding microarray; form: double-stranded DNA, one strand shown; matrix: in vitro; concentration: not given; reference: not given; reading: higher = stronger binding
Target: Histone acetyltransferase KAT6A, winged helix 1, GST fusion (KAT6A, Homo sapiens, UniProt Q92794, residues 1-85)
Notes: 8-mer, flanks averaged, mean of 2 arrays, mostly near background
Target sequence (chain): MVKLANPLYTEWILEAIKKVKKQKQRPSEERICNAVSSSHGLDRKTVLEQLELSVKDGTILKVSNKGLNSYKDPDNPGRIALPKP
Strand	E-score
GTAAAGAA	-0.113
ATTGGTGC	0.0408
AACTACAG	0.00594
GATTAATA	-0.0317
ATCAGGGC	-0.0536
ATGCCCAT	-0.161
GGTCGACC	0.286
ATTTCAAG	-0.182
CGGTGGAC	0.038
CGAACTGA	-0.095
ACTGAAGC	0.0238
AAGTGCAG	-0.236
GGCACTTA	-0.0917
GCTAGTAC	0.0742
GAAAAATA	-0.104
CCAAAACG	-0.198
CGACGGCA	0.433
AAGCTAAC	-0.163
CTGGCTCA	-0.0932
TCACAGGA	-0.191
ACCGGCGA	0.26
CAAATAAG	-0.14

Series 6 — target: CCNA1, cyclin fold, Cln2 fusion (human); technique: yeast growth competition, sequencing; matrix: yeast; notes: weak parent motif; reference: not given; reading: higher = stronger binding
Parent: DBF4 docking peptide (human); DDIVSKLVFDFVE; partner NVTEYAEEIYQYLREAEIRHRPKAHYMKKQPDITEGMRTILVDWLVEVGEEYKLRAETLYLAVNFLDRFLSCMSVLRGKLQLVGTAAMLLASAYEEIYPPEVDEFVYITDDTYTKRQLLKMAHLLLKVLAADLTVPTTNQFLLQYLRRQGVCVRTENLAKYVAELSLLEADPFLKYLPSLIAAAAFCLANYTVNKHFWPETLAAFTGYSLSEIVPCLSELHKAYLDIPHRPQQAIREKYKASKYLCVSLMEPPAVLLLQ
Substitution	normalised enrichment score
F9A	0.0812
D1A	-0.482
E13A	-0.316
L7A	-0.607
V12A	-0.533
D2A	-0.245

Excerpt of the above (series 5):
Strand	E-score
AACTACAG	0.00594
CGAACTGA	-0.095
GCTAGTAC	0.0742
ATTGGTGC	0.0408
CAAATAAG	-0.14
GAAAAATA	-0.104
GATTAATA	-0.0317
